Measurements of several laboratories.
A part holds a random share of what one study measured. Changes are numbered by the printed parent chain.

Sample 1
Target: RNA binding protein fox-1 homolog 2, RRM domain, GST-SBP tag (RBFOX2, Homo sapiens, UniProt O43251-10, residues 100-194)
Technique: RNA Bind-n-Seq
Molecule type: RNA
Medium: in vitro
Tested at: 365 nM
Notes: natural RNA segment, single round, ends assumed
Baseline: no-protein control
Reading: higher = stronger binding
Shared flanks, not repeated: GGGAGUUCUACAGUCCGACGAUC … UGGAAUUCUCGGGUGCCAA
Residues (chain): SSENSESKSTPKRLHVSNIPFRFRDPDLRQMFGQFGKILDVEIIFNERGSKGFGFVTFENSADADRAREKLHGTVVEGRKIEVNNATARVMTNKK
Sequence | RBNS enrichment (R)
CACCCAUUGAACAGGAUGUUAAUGAGAACACACUGAAGAACUUGGAGUCGUAUGACAGCCACAAGGCUGGAAAUCACAAUGCACUUGCUGCCGUUCUGACCUGGGACUGG | 0.586
CACAUGUAAUAGACCCUUUAGCUUUAAUGAGCAGACAUGAGAAUGGUUUAUGAUCUUAAGUUGGUAACAUAGGAAUAUGUAUUUGUCAAUUUUAGUUCACAAACAUAUCC | 0.521
UCUGAAUUUUGAAAAACCACAAAGCUACAAACUGACCCUCUUUUUUUUUUGAGACGGAGUUUUGCUCUUGUUACCCAGGCUGGAGUGCAGUGGCGUGAUCUUGGCUCACU | 0.287
CUCCUUGUUCUGGGCUCCAGUUUUCCCAUUUGUGAGAUGAGGCAACUUCCAAUGCUUCUCUAGGCCCUGCACGUAAGUGAUUUUUCCAGUUCAAAGUCAAGACAGGUAAA | 0.364
CCACAAACCACCAGGACUGAAAGAAGAAAACAGUACAGAAGGCAAAGUUUACAGAUGUUUUUAAUUCUAGUAUUUUAUCUGGAACAACUUGUAGCAGCUAUAUAUUUCCC | 0.583
CUCGGCUCUAGACUUGGGGGAGGGGUUGCCACAGGCCUCCCAGUCUAAAACCCACCUUUGUCUGAGGUGCCGGGAGUAGCCAUGGUACCCCCUUCCUGGGCAUCCGUUCG | 0.443
UGCUGGUGAGUCUGACACUUGGUGAGUUUUCAGCCAGUUUGUUAAACUUUUAAUUAAGUUUUGUUUAUAAUAAAAAUAUAAAUGGAUUUGAAAGUUUCCAUUUUUUAAAG | 1.05
GGAGACUUCAUUAUGUUAAUGAACGAGAUAAGAAGAAAAUGGCGCUCAUUGUGGCCUUGUUGAGUUAUGUUGUGUUUGUUUAACAUCUCUGAUGCUCUGUUACUAGAAUU | 0.549
CCUGGUCUGUCUCCUCAGGGCAGGGCCCAGCACACUGCCCGGCCAGUCCUCCUACCUCCCGAGUCUGCGGGCAGCUGCUGUCCCAGCAUCUGCUGGUCAUUUCGCCCUGA | 0.339
CUUGCUUUAAAAUUUAGUCCUGUGCAUACUGUGGUGUUUUUACUGUGCAUAUUUGAAUUUUUCAUGCAGUUUUUCUAGAGCAAUAAUCAGUGGUGCUUUUGUACCUAGGU | 0.525
AGGCAGUUUAGGUCAAGAGCUGAGCCAAGGUGCUUGAGGAAGGCUUUGCUACAGGAGUGUAGAGACAGACAGCCCCAAGAGCUGUCAGCAUUGGAAGCCAGACUUGAUUC | 0.424
AUCACACCAUUAUUCCUUAGAAGUAAUUACAUGUGUUCUAACACAUUUGAGACAGGGUUGGACUCCCAUUUCUCAUCCGAGAAAUUACUUAACCCUUCCUGGCGCUGUAC | 0.354

Sample 2
Target: RING finger protein unkempt homolog, zinc fingers 1-6, GST-SBP tag (UNK, Homo sapiens, UniProt Q9C0B0, residues 30-357)
UniProt Q9C0B0, sequence (30-357, looked up): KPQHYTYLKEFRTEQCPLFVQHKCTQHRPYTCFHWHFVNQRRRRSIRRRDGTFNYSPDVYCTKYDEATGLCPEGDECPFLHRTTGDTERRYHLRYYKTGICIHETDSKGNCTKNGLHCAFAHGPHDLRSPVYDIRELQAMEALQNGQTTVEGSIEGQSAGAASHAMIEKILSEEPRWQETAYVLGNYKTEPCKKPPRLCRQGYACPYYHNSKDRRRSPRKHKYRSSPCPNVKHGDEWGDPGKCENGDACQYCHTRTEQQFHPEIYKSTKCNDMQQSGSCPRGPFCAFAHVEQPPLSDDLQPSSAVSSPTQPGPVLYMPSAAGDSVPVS
Technique: RNA Bind-n-Seq
Molecule type: RNA
Medium: in vitro
Tested at: not given
Notes: RNA with constant flanks, human-mouse chimeric sites, ends assumed
Baseline: input RNA pool
Reading: higher = stronger binding
Shared flanks, not repeated: GGGAGUUCUACAGUCCGACGAUC … CAACAGAGGAUUGAGCAUCA
Sequence | bound/input enrichment [ratio]
UAAGUCCUGUGCCAGCACUUCGCUCAUAAAGUUUUAAAUUCUGGACCAAUUGUGUUUGUUUCCUGAUUAUUGUAUCCAAUACUUUGCCUAGUAUGUAACUCAUGCUUACUGAUAAUAAAA | 0.694
CUCAGAGAUGUGGCAUAUCAAUAUGUGAAAAAGGGGUCUCGUAUAUUUGUGGAAGGGAAAGUGGACUAUGGCGAGUACAUGGAUAAAAACAAUGUGAGGCGGCAAGCAACAACAAUCAUA | 0.419
GGCCUGGGACCGUCCUGGGCUAGUACAAAUAGCGGCAGUGGAGGCUCAGAGGAAAGUUUUGUUAGUGGAGGCAGUGGUAGAGGCCGUCAUGUACGGUCUUUACACGAAUAGAUGUGUUCU | 0.675
GCAGGAUCUUCUAAGUACCAGUGGGGCAUUAUGAAAUCCCUUGGGCUCUCUGAUGACGACAUAGUGAAGUUUUCUGAAGCAGAACAUUGGCUUGAUUAUUUCCCACCACUGGCCGUUCAG | 0.239
CGCUUGGAUGAGGCUGGUGUCACAGAUGAAGUGCUAGAUUCUGCCAUGCAAGCCUUCUUACUAGAAAUCAUUGUUAAACAUGGGGAGCCGGCACCUUAUUUAUGUAACAAAGAUCCGUUU | 0.252
GGAAGCACAAUGAUGGAGAUUGAUGGUGACAAAGGCAAGCAGGGCGGGCCCACCUACUACAUAGACACCAAUGCCCUGCGUGUUCCGAGGGAGAACAUGGAGGCCAUCUCACCACUCAAG | 0.209
UAAGUCCUGUGCCAGCACUUCGCUCAUUAUAUUUUAAAUUCUGGACCAAUAGUGUUUGUUUCCUGAUUAUUGUAUCCAAUACUUUGCGUACUAUGUGACUCACUCUUACUGAUAAUAAAA | 1.41
AUUGUUGAAGCGAAUCCACUUUUAGAAGCCUUUGGAAAUGCGAAGACUGUUCGCAACAAUAAUAGCAGUCGAUUUGGAAAAUUUGUAGAAAUUCAUUUCAAUGAAAAGAGUUCGGUUGUU | 0.521
GUGACUGGUGUUAAGAUUUCCCCUCAGCAAAGAAGUGCAGUAGUCACCAUAAUUCCAUCUAUAGUGAGUGCCAGUCAGAUUGUGGAGCUGGUCCCAGAACUCAGUUUAGACAUGGGAACU | 2.17
UGUGCAUAUGAUGCUUGAGAUGGUUUUUGCAGAUGCAGAAAUCGCUGCAAGGUCAUUACAAUAGAUAAAAGUGGUAUUUUAAACCUUUGAAAUAAAUGGAUGUAACUGUACCUUGGUACA | 0.386
GCUCUUGGGAAUGUAAUCAGCGCCUUGGGAGACAAGAGCAAGAGAGCCACCCAUGUCCCCUAUAGAGACUCUAAGCUGACAAGACUCUUGCAGGAUUCCCUUGGGGGUAACAGCCAAACC | 0.132

Sample 3
Target: ABI1, truncated, D143A, DHFR fusion (Arabidopsis thaliana, UniProt P49597)
Technique: DHFR PCA, dose-response
Medium: yeast
Notes: Hill fit, mean, not affinity
Added: (+)-ABA, dose series
Reading: lower = more sensitive
Starting sequence: PYL1, truncated, DHFR fusion (Arabidopsis thaliana, UniProt Q8VZS8); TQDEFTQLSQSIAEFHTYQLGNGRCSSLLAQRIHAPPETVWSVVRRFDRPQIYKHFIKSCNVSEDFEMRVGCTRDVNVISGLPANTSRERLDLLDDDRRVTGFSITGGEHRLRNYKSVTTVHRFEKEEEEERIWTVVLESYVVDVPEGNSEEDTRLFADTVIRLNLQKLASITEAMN
Substitution | ABA EC50
R32T | 2.31 µM
L93C | 4.33 µM
M68N | 4.41 µM
L93M | 1.41 µM
C60V | 6.03 µM
I172T | 8.96 µM
T17A | 14.5 µM
Q167C | 2.6 µM
L166H | 13.3 µM
S117G | 145 µM
S59D | 2.41 µM
V145K | 27.8 µM
N114H | 8.37 µM
S171G | 3.47 µM
V100W | 344 µM
E151H | 6.59 µM
L20I | 5.46 µM
L8E | 61.3 µM
V118C | 2.81 µM
N114Q | 89.8 µM
D159K | 195 µM
M68S | 16.1 µM

Sample 4
Target: CCNB3, cyclin fold, Cln2 fusion (human)
Technique: yeast growth competition, sequencing
Medium: yeast
Notes: weak parent motif
Baseline: not given
Reading: higher = stronger binding
Starting sequence: PKMYT1 docking peptide (human); SFEPRNLLSLFED
Substitution | normalised enrichment score
SFEPRNLLKLFED [S9K] | 0.396
SFRPRNLLSLFED [E3R] | -0.405
SFEPRNLLSLAED [F11A] | 0.504
SFEPRNLLSSFED [L10S] | 0.121
SFEPRFLLSLFED [N6F] | 0.62
SFEPRNLLSLFEC [D13C] | 0.384
SFEPRNLLSLFEH [D13H] | -0.0323
WFEPRNLLSLFED [S1W] | 0.491
SFEPRNLPSLFED [L8P] | -0.139
SFEPRNLLSLDED [F11D] | 0.248
SFEPRNLLSLSED [F11S] | 0.67
SFEARNLLSLFED [P4A] | 0.556
SMEPRNLLSLFED [F2M] | 0.634
SFEPKNLLSLFED [R5K] | 0.457
SFEPRVLLSLFED [N6V] | 0.473

Sample 5
Target: Ras GTPase-activating protein-binding protein 1, C-terminal RGG region (G3BP1, Homo sapiens, UniProt Q13283)
UniProt Q13283, sequence (whole entry, looked up): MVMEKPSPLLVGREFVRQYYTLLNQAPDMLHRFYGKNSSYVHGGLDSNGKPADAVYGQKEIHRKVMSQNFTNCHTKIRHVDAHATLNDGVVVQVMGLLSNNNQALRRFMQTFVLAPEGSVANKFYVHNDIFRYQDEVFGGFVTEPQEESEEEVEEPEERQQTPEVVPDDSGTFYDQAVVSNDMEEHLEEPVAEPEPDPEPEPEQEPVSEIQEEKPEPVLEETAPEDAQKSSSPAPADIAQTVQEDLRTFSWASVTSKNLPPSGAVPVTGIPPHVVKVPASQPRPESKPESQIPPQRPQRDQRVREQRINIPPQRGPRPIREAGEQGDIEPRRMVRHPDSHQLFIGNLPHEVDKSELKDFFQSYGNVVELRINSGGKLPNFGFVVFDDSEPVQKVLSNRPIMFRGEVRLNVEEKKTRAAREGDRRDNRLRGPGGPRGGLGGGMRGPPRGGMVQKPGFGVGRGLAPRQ
Technique: RNA Bind-n-Seq
Molecule type: RNA
Medium: in vitro
Tested at: 1 µM
Notes: whole 134-nt RNA, ends assumed
Added: 150 mM KCl
Baseline: input library
Reading: higher = stronger binding
Shared flanks, not repeated: GGGAGUUCUACAGUCCGACGAUC … UGGAAUUCUCGGGUGUCAAGG
Sequence | log2 enrichment
UGGCCCUGGUGGCAUGCGGGGAGGAAGAGGUGGCCUCAUGGAUCGUGGUGGUCCCGGUGGAAUGUUCAGAGGUAGCCGUGGUGGAGACAG | 2.95
CCUGUGCUACACAUCGUAUGUACCGAAUCGGAAAAAAAGGGGAAAAAAAGGAAAAAAAGGGAAAGUAUUAUGUUACGCCGUUCGGAUCUG | -1.55
UCCUCAAGUCCUGUGCUACACAUCGUAUGUACCGAAUCGGGGUGGUGGGUGGAAAGUAUUAUGUUACGCCGUUCGGAUCUGCACUUCCAG | 0.258
UCAAGUCCUGUGCUACACAUCGUAUGUACCGAAUCGGAAAGGAAAAAGGAAAGGAAAGUAUUAUGUUACGCCGUUCGGAUCUGCACUUCC | -1.6
ACCAUGCAGGUGGGCAUCUUUGGGAAGUGGGGCAAGGGGGGGAUAAGGAGGGGGGUAACACUUUGGGAACAGGUGGUCCCAGGUCGUUUC | 2.29
AAGUCCUGUGCUACACAUCGUAUGUACCGAAUCGGGUUUUUGGUUUUUGGUUUUUGGAAAGUAUUAUGUUACGCCGUUCGGAUCUGCACU | -1.53
GCAGGAAGUAAAAACAAAUGGAAAUGCUUCGGAUAGUGGCAGGGGUGGGGGAUGCUAAGGAAAGGGUGGGAUGGGAGUGGGUAAAGAGUU | 2.12
AGUCCUGUGCUACACAUCGUAUGUACCGAAUCGGGAGGGUUUUUGGGUUUUUUUGGGAAAGUAUUAUGUUACGCCGUUCGGAUCUGCACU | -0.427
UCAAGUCCUGUGCUACACAUCGUAUGUACCGAAUCGGAAAGGUUUUUUUGGAGGAAAGUAUUAUGUUACGCCGUUCGGAUCUGCACUUCC | -1.56
GUCCUGUGCUACACAUCGUAUGUACCGAAUCGGGAAAAAGGGAAAAAGGGGAAAAAGGGAAAGUAUUAUGUUACGCCGUUCGGAUCUGCA | -0.293
AGUCCUGUGCUACACAUCGUAUGUACCGAAUCGGGAAAAAGGGAAAAAAAGGGUGGGAAAGUAUUAUGUUACGCCGUUCGGAUCUGCACU | 0.858
UGGCCCUGGUGGCAUGCGGGGGGGAAGAGGUGGCCUCAUGGAUCGUGGUGGUCCCGGUGGAAUGUUCAGAGGUGGCCGUGGUGGAGACAG | 2.25
UUGACCGGAGCGGCCGUCACUUUGGUACAAUCCUCAAUUACCUGCGGGAUGGGUCUGUGCCACUGCCGGAGAGUACGAGAGAACUGGGGG | -1.47
UAACUUUAGAGGAGGAUCUGAUGGAUAUGGCAGUGGACGUGGAUUUGGGGAUGGCUAUAAUGGGUAUGGAGGAGGACAUGGAGGUGGCAA | -1.01
